Measurements from different studies.
Every numbered part comes from another study and shows a few of its results, in no order.

Set 1 — method: RNA Bind-n-Seq; form: RNA; medium: in vitro; concentration: 365 nM; baseline: no-protein control; reading: higher = stronger binding; endpoint: RBNS enrichment (R)
Target: RNA binding protein fox-1 homolog 2, RRM domain, GST-SBP tag (RBFOX2, Homo sapiens, UniProt O43251-10, residues 100-194)
Setting: natural RNA segment, single round, ends assumed
Residues (chain): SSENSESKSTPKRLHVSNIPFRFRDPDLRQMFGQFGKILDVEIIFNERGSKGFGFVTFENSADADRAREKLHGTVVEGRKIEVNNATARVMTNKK
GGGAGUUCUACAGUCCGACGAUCUACUUUUAGCUUUAUUCCCUAAAUUUGAUUUCAUAAACAUGCUAAAAUUUGCAAGAGAAUUAACACAUACACAGUUUGCCAAAUCAUAUCAAAUCUUCCCAUUGGAGAUAUGGAAUUCUCGGGUGCCAA: 0.659
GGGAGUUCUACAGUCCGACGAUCUAAGUAGAUAAGCAGACGAUAGUUAUCUGUUCUUUUGACUUAAUCUCAUUUGGUUUGAUUUUCCCUCUACUAAGGCUUUCCUACCUUCUUCAGGCUGCCUAAGACAUGUAUGGAAUUCUCGGGUGCCAA: 0.28
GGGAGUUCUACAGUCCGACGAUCAAUUUCAUGGUUCUUUAAAUAUUAUAAACACAGAGUCAACAUAGAAUGAAAUUGUAUUUGUUAAAAUACACACAUUGGAGGACAAGAGCAGAUGACUACUUUUCGAAGUAUGGAAUUCUCGGGUGCCAA: 0.396
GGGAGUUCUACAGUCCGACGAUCAGUGACUCUAUUUUCCCUGAGCUUGCUCCCUGAGGACCCACCACAGCCUCAUCCUUUGCCUUGCUGGCUUUCUGGGCACGUCUUAAAGCUGAUGUGAAUCCAUCCAGGGCUGGAAUUCUCGGGUGCCAA: 0.371
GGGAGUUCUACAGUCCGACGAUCCCUGUGGUGCUAAAGUACAGUAGAAAGAUGUGUAUACGUUUUAUUUUAAAUUGUACGAAGGGGAAUUUAAAAAUACGUAACUGCUGUUUAUACAUCAGCUCCUUACUGCUUGGAAUUCUCGGGUGCCAA: 0.408
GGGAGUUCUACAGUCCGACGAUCGUAGGAGCCCCUAGUGGGGCUGGUGGACAGCUUUGGAAGAGGUGUCCUGCUGCUGUUACCAGCCAUGUGGGCCCCAUAGGGGCACUGCGCCUGCUGCCCUUUCCUGGCAGUGGAAUUCUCGGGUGCCAA: 1.03
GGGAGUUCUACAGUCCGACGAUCCUGCCCUAGUUAGGACAGACAUGCUUGUCUCUCCUAGGUAAAAGGUCAGGUCCCCGAGUCAUUUCUGUAGUGAAGAGCAGAGUUCCGUGUCUACACUGGCAACUAGGAACUGGAAUUCUCGGGUGCCAA: 0.334
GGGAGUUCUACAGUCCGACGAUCCCAGUCCAGGUUGGAAAGAAGUCUCCUUAGUGUCAGAUUAAGCCCCAUCUCUUAACAAUAUGGACAGAUGAGUGUGCCAUGGCCAUGAGCUAUUUCCUAACGCAGAAGGAUGGAAUUCUCGGGUGCCAA: 0.786
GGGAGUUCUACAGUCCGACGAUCUAAAACUGUUAUUUUUUUUUCACGAUGUGAAACUGAAGGUCAAUAAAUUAUUAGAGAUUUUCUCUUCAUUGUAUUGUGAGUUUUUAUUUGACAGCAAUGAAAAUUUUGGAUGGAAUUCUCGGGUGCCAA: 0.392
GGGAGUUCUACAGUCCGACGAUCUCUCCGCCUGCCCUCUUCCCCUUGUUUCCUUGGGUGAGUGUGGGGGGCAGCCUGCUGUCCCUCCCACCUGCACAGUGAUGCUGUCUGGUGGGGCCUCGUGGUGCCUAGGAUGGAAUUCUCGGGUGCCAA: 0.189
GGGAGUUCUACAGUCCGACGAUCCUAGUUUUGUCUAUAUAUCUUUUCCAUGAAAUUAUAGCUAUCUAUGUAUUUGUAGUUGUUUCUUUCAAAAACAAUUUUUAAAAAUUGGAAAGGGAUAUAUAUGAGAAGUGUGGAAUUCUCGGGUGCCAA: 0.485
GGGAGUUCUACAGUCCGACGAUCCAUGCAUCCUUGGGCAGGUUGCCCUUAAAUCUUACACUGUGGUGAAGGGAUGUUUUUUUUGUAAUGCUGCAGUAGAGUUGGAGUACUUAGUUCUCUUGUUGUCCAGUAUAUGGAAUUCUCGGGUGCCAA: 1.11

Set 2 — method: RNAcompete; form: RNA; medium: in vitro; concentration: 20 nM; setting: 7-mer, probes averaged, single round; baseline: mean of 7-mers; reading: higher = stronger binding; endpoint: 7-mer Z-score
Target: PABPC1L2, full length, GST fusion (mouse, UniProt A0ABA7IW68)
Construct (chain): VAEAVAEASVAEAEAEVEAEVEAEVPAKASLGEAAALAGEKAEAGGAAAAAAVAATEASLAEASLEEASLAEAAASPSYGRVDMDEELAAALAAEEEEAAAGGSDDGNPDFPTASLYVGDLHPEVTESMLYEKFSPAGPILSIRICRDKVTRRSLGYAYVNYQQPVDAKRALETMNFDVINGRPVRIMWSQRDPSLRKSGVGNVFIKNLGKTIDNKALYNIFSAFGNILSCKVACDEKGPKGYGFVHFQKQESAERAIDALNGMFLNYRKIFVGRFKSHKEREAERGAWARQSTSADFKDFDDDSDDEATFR
AUUACUG: -0.219
UGGCCUG: -0.012
UAAUCGC: -0.258
GUCCCCU: -0.416
UCAUGCC: -0.403
GAUCCAU: -0.164
GUACCUA: -0.246
AGCGUCA: -0.22
CGGAAUG: -0.0699
UUUUAUA: 0.037
CACUAGU: -0.34
GAUCCGG: -0.115
AGGGGGA: 0.392
GUUAAAU: 0.182
GUGUAGG: 0.256
UACGGUC: -0.22
AAGGUAG: 0.122
CGCCCGC: -0.34
UGGCGUC: -0.142
GGGGUAC: 0.0823
AUCGAAC: -0.0863
GAUUGCC: -0.284
AGCAUAU: -0.0627
GAUUCAG: -0.135
UACCACG: 0.0932

Set 3 — method: RNA Bind-n-Seq; form: RNA; medium: in vitro; concentration: 100 nM; baseline: input RNA pool; reading: higher = stronger binding; endpoint: bound/input enrichment
Target: RING finger protein unkempt homolog, zinc fingers 1-6, SBP tag (UNK, Homo sapiens, UniProt Q9C0B0, residues 30-357)
Chain of UniProt Q9C0B0 (30-357, looked up): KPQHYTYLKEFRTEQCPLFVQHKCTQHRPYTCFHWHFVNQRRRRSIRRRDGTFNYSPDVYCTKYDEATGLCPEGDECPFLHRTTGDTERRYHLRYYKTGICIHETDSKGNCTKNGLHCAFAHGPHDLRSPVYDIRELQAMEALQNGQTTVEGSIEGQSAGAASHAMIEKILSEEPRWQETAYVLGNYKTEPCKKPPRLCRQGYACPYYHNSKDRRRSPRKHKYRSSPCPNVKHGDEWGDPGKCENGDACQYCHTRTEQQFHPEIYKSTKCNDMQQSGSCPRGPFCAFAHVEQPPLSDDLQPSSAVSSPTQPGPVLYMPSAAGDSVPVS
Setting: RNA with constant flanks, vertebrate orthologous sites, ends assumed
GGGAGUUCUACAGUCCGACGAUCCUGUUGUGUGAAACAUGUCUACCCAGAAAAGUAAUAUUCUAUAAAUACUAUUAAAAAACUUAGCUAUAUUAUUUUUAAGCAUUAAAUUAUAUGUCAAGGAGUUAAAGUGAAUUUCAGAGUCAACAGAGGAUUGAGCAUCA: 0.494 ratio
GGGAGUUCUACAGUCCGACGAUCAGGGCUGUGUAGAGUAGGGCCCUGUUCUCCUUAGGAUGUUGCUUCUUGAUUUUUUUUUUUUAGGGGUGGGUCAGGGUUGUGACACACCAGCCCAGGUGAGAGCUGCUGCGGGUCACCUCACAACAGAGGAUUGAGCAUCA: 1.01 ratio
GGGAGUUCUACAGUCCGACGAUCAAAUAUGUAAUCAUUUGAUUAAAAUUGGAUAAGAAAUUACUGUUCAUUUUCCCUUUCAAACAAGCUUAUCCUGUUUUUAAUCUAUUUUUCAAAAUAUCGGUUGUGUAUGGUUGCUUGACACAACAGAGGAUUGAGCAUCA: 0.423 ratio
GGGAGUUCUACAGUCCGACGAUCACUUAAAAUCUUAAAGAGAUUAUACUGGGAUCUGGACAUUGAUUUUGCAGGGUCAGGCCGUUGGAUAGUGUUGCUGUGUUGUCUUAUGUUUUUUAAGAUCUGUGUACUUUGUCCAAAGUUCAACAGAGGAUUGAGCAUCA: 0.595 ratio
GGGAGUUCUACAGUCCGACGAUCUUACAGUCAUUGAUGGACUCUAUUUUUUUAUUAUUACUUGGACCUUGGUCGUUUUUAUACUAGCAAUGAAAAUGUCUUGUUUUAAUUUUGUUUUUGGGGUGGGGGGUGGGAAAUGUCUUGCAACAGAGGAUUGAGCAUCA: 1.19 ratio
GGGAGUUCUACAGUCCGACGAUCGGUUGAUGUUCUGAAGAACCACUUAGUAAAAGAAGGUCGGGUAGAUGAAGAAAUUGCACUUAGAAUUAUCAAUGAGGGUGCUGCCAUUCUUCGGAGAGAGAAAACCAUGAUAGAAGUAGACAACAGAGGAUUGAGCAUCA: 0.807 ratio
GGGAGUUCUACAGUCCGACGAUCAAAUGCCUUCUGUUCCAUUAAGAAGAACAAGUAUAGUCCCCCAGGUAUAAAACUCCUAGAUAGCUAUUUUUGAAAUGAAAAUGUUUAAAUUUUAUAAAUCAGCUCUUGCCUCUAUACAACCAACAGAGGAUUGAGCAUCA: 1.35 ratio
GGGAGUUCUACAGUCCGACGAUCAAGUAUCCCAGUUUACCGUGUUGAGUUGGCAUUGUACAGAAAUUAACAGCCAUAUUGGUCUAGAAAUGUUGAACUUAAUUUUUUCCCAUUUGUACAGGGGUAACGCACUGUAUUAAAUAUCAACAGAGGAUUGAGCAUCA: 0.517 ratio
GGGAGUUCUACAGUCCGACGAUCCUUUCUCCCCCACUGAGGGGGAGUGUGGGGAGCCCAGGAAGACCCUCAGCUGUUCUAAUCCAGUAUUUUUUUCUUUUUUAAAAUUACUGUAUUUAUUAUGACGAUGGUGACUCCCCAGUGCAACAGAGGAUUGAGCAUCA: 0.274 ratio
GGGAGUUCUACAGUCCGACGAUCCUCCCUGAGCGACAGCGUGCCCUCGGUGGCGGACUCGCACUCGAGCCACUUCUCCGAGUUCAGCUGCUCCGACCUGGAGAGCAUGAAGACCUCCUGCAGCCACGGGUCCAGCGACUACCACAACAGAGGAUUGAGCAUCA: 0.454 ratio
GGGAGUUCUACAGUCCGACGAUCUUGUGAGGAGUGGGAAGGAUGAGAUUCUUCUCCCUCCAAGUAAAACUGACAUAAUUUCCUUUUAGUUCUGUCUUUGAAAACAAAGAUGCCCUUUUCUCUUAAUUGUGUGACACCACUAUCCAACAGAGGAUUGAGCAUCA: 0.691 ratio

Set 4 — method: aptamer microarray, sandwich; form: DNA with 2'F-ANA; medium: in vitro; concentration: 200 nM; added: Cy3 exosite-II aptamer, 400 nM; reading: higher = stronger binding; endpoint: mean fluorescence intensity; sequence: GGTTGGTGTGGTTGG
Target: Prothrombin, mature alpha-thrombin (F2, Homo sapiens, UniProt P00734)
Setting: whole 15-mer aptamer, many near background
2'F-ANA at 1 3 4 5 7 8 9 10 11 14: 50.5 a.u.
2'F-ANA at 3 9 11 12 14 15: 615 a.u.
2'F-ANA at 6 13: 413 a.u.
2'F-ANA at 1 3 5 7 8 10 11 15: 46 a.u.
2'F-ANA at 1 2 3 5 6 7 8 9 10 11 14 15: 58.2 a.u.
2'F-ANA at 3 4 5 7 9 11 13: 61.6 a.u.
2'F-ANA at 1 3 4 5 8 10 11 12 14 15: 62.6 a.u.
2'F-ANA at 1 3 5 10 11 14: 59.6 a.u.
2'F-ANA at 1 4 5 6 7 8 10 12 14: 81.5 a.u.
2'F-ANA at 1 2 3 6 8 9 11 12 14 15: 119 a.u.
2'F-ANA at 2 4 5 9 11 14: 43.9 a.u.
2'F-ANA at 1 3 5 7 8 12 15: 196 a.u.
2'F-ANA at 1 2 4 10 11 12 13 15: 53.1 a.u.
2'F-ANA at 4 9 10 11 12 15: 92.1 a.u.
2'F-ANA at 2 3 4 5 6 8 13 15: 57.5 a.u.
2'F-ANA at 1 5 10 12 13 15: 47.8 a.u.
2'F-ANA at 1 2 7 10 12 14: 45.2 a.u.
2'F-ANA at 2 3 5 7 9 10 15: 68 a.u.

Excerpt of the above (set 2):
UACCACG: 0.0932
GAUUGCC: -0.284
CACUAGU: -0.34
UAAUCGC: -0.258
CGGAAUG: -0.0699
GUACCUA: -0.246
AAGGUAG: 0.122
GAUCCGG: -0.115
AUUACUG: -0.219
GAUCCAU: -0.164
UUUUAUA: 0.037
